Measured values pooled from the literature.
Every numbered part comes from another study and shows a few of its results, in no order.
Chain of UniProt Q9NY57 (whole entry, looked up): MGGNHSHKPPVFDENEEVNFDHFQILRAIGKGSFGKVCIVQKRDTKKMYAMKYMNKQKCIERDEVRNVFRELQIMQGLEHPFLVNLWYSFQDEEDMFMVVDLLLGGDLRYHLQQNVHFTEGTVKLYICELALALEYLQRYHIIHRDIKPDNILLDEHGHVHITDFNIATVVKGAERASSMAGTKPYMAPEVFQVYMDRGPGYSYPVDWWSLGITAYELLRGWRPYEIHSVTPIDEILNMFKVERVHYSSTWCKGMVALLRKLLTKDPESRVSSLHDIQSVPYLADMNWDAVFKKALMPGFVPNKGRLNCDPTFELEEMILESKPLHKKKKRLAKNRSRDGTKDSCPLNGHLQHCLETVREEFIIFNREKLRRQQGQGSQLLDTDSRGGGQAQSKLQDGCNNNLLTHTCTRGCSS
Chain of UniProt Q13873 (whole entry, looked up): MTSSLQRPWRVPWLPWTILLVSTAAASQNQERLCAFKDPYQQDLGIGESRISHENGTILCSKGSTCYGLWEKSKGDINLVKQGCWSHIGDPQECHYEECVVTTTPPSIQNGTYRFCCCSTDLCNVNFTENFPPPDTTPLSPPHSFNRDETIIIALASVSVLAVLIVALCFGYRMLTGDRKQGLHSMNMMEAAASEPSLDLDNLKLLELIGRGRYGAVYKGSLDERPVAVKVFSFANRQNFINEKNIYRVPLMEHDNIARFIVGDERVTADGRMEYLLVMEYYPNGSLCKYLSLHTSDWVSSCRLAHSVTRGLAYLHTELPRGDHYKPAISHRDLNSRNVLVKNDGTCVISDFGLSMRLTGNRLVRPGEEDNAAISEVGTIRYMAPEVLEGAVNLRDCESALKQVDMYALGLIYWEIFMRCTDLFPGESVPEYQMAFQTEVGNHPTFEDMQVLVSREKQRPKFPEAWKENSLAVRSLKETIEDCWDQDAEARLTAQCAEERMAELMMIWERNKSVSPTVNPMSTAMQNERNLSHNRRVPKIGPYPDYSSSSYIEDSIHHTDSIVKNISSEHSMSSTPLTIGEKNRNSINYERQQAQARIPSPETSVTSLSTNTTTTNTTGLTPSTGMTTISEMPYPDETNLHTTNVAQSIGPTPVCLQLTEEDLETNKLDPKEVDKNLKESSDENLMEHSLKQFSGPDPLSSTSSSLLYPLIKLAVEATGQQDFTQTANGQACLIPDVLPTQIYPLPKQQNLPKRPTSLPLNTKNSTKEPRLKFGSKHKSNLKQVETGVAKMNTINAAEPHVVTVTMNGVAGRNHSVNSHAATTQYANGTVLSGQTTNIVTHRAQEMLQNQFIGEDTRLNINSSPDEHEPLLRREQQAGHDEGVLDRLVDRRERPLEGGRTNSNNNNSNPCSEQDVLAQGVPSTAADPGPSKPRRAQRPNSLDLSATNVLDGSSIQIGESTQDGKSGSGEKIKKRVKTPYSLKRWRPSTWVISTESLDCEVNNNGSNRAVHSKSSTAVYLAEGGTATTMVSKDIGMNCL
Chain of UniProt Q12851 (whole entry, looked up): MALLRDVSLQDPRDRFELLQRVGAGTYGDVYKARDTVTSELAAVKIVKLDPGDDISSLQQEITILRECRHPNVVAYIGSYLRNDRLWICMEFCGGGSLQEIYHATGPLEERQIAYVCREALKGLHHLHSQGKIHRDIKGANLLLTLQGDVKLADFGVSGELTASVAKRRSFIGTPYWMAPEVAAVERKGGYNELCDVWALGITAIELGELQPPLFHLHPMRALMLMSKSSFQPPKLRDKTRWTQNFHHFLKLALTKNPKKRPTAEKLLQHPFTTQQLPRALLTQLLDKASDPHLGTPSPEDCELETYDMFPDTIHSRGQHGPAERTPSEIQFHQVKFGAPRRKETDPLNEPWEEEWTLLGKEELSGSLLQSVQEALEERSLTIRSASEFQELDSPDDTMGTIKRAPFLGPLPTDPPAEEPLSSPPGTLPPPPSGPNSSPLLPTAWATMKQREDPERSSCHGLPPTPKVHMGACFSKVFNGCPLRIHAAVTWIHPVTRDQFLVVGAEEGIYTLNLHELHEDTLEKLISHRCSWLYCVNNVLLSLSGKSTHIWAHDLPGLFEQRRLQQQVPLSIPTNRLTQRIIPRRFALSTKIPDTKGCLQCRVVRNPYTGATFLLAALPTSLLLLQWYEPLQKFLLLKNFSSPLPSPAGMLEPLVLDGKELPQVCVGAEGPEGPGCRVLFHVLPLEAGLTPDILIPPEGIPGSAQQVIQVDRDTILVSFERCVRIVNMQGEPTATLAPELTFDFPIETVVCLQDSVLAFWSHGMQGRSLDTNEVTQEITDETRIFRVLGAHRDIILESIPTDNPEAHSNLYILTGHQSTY
Chain of UniProt P23458 (whole entry, looked up): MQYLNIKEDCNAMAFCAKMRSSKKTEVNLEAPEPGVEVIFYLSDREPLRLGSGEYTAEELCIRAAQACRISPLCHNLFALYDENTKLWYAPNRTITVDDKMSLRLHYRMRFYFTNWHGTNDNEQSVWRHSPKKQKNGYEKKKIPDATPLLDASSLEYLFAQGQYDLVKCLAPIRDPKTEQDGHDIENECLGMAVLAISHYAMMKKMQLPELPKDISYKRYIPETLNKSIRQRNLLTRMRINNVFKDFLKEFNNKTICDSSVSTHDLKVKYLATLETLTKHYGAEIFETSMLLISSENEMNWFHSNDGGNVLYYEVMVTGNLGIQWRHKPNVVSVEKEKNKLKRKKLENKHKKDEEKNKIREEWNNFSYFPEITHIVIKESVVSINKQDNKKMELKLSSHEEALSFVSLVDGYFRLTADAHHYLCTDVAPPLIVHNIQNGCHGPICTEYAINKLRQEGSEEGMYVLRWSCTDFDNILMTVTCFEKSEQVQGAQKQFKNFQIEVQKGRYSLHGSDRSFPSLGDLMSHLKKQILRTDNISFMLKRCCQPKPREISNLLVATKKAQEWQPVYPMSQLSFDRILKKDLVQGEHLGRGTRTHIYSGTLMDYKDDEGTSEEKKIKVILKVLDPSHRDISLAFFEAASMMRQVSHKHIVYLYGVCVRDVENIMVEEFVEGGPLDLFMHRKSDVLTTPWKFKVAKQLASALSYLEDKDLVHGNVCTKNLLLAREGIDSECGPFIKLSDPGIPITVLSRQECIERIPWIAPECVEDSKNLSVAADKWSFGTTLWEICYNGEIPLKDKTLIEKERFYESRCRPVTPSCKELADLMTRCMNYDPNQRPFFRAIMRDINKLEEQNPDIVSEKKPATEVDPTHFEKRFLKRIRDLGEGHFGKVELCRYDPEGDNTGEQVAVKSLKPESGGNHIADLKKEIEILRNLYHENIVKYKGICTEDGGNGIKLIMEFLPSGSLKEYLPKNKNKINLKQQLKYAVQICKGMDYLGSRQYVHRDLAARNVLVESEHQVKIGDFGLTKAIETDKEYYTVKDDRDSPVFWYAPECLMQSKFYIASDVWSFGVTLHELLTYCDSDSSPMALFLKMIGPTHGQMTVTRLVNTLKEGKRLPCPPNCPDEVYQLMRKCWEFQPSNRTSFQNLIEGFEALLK
Chain of UniProt Q7L7X3 (whole entry, looked up): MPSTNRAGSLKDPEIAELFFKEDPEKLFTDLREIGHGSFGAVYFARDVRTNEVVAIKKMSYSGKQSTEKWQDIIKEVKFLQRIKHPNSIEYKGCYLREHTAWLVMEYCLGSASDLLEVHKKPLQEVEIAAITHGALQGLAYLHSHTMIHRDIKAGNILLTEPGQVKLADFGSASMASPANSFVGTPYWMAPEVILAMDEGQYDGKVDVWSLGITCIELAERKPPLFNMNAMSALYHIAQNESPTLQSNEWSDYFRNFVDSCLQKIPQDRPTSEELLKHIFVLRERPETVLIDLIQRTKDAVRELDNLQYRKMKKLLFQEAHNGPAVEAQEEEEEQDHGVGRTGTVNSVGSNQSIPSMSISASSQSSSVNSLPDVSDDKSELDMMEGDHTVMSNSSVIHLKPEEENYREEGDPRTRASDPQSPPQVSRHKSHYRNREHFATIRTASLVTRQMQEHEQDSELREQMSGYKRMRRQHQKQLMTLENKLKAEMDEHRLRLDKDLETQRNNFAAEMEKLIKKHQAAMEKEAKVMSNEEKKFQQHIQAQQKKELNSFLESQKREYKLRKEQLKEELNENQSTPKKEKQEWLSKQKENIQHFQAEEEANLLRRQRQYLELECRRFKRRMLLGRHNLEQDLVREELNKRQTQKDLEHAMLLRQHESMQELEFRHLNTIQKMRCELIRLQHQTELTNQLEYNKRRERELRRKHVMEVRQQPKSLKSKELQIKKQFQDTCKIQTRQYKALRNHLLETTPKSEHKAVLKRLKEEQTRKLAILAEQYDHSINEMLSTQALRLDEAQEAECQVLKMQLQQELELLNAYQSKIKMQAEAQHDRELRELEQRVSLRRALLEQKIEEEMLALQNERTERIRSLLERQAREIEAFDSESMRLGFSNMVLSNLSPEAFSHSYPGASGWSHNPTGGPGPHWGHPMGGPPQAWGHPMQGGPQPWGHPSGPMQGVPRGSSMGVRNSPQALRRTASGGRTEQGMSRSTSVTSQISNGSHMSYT

Block 1
Target: Death-associated protein kinase 3 (DAPK3, Homo sapiens, UniProt O43293)
Chain of UniProt O43293 (whole entry, looked up): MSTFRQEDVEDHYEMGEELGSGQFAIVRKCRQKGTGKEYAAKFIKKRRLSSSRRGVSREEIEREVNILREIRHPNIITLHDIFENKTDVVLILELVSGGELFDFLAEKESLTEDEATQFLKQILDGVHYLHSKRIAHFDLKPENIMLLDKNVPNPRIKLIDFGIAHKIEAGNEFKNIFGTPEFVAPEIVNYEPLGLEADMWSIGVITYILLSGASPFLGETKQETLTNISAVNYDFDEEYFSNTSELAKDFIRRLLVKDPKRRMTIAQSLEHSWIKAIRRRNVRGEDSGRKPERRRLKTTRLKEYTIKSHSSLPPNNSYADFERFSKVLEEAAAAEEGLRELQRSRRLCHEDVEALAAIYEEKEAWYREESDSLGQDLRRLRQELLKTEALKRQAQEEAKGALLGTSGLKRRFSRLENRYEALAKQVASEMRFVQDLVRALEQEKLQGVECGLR
Effect on: enzyme activity
Action: inhibitor
Tested at: 0.5 µM
Relative to: control
`O=C1NC(=O)C(c2cn(CCCn3ccnc3)c3ccccc23)=C1Nc1ccccc1` has a remaining activity of 104%.
For `COc1ccc(OC)c2c(=S)c3ccccc3[nH]c12`, the remaining activity was 112%.
The remaining activity of `Cn1sc(=O)n(Cc2ccccc2)c1=O` is reported as 103%.
With `CN(C)c1ccc(C=C2C(=O)Nc3ccccc32)cc1` the remaining activity was 101%.
With `Nc1ncnc2n[nH]c(Nc3ccc(F)cc3)c12` the remaining activity was 124%.
`CCOC(=O)c1c(C)[nH]c(/C=C2\C(=O)Nc3ccccc32)c1C` gave a remaining activity of 85.1%.
For `NCCNc1ncc(C(N)=O)c(Nc2cccc(C(F)(F)F)c2)n1`, the remaining activity was 96.7%.
The remaining activity of `O=C(Nc1cccc(Nc2cc(Nc3cccc(C(F)(F)F)c3)ncn2)c1)C1CC1` is reported as 99.8%.
The remaining activity of `COc1cc2nccc(Oc3ccc(NC(=S)NC(=O)c4ccccc4C)cc3)c2cc1OC` is reported as 75.4%.
For `OCC(O)CCON=C1C(c2c(O)[nH]c3ccccc23)=Nc2ccccc21` (stereo not drawn), the remaining activity was 66.6%.
With `Nc1ccc2ncnc(NCCc3ccc(Oc4ccccc4)cc3)c2c1` the remaining activity was 104%.
`O=c1c2ccccc2[nH]c(=S)n1CCN1CCC(=C(c2ccc(F)cc2)c2ccc(F)cc2)CC1` gave a remaining activity of 102%.
For `COc1ccc(CNC(=O)Nc2ncc([N+](=O)[O-])s2)cc1`, the remaining activity was 106%.
The remaining activity of `Nc1[nH]nc2nc3ccccc3nc12` is reported as 98.2%.
`O=C1NC(=O)C(c2cn(CCCO)c3ncccc23)=C1c1cnccn1` gave a remaining activity of 80.2%.

Block 2
Host: human
Sample: microsomes or S9
Tested at: 2 µM
Time: 0.5 h
For `CC12CCC(C(=O)N(c3ccccn3)c3ccccn3)(OC1=O)C2(C)C` (stereo not drawn), the remaining compound was 22.8%.
With `CCOC(=O)N1CCN(C(=O)c2ccc(-c3ccc(Oc4ccccc4)cc3)nc2)CC1` the remaining compound was 3.06%.
`COc1cc2c(cc1OC)C1CCCCC1OC2c1cccc(F)c1` (stereo not drawn) has a remaining compound of 52.7%.
`CC(C)c1oc(C2CCCN2S(=O)(=O)c2ccc3c(c2)COC3)nc1-c1ccccc1` (stereo not drawn) has a remaining compound of 8.76%.
The remaining compound of `O=c1[nH]cnc2c1nnn2Cc1cc(F)cc(F)c1` is reported as 89.1%.
`CCCN(CCC)CC(c1ccc(-c2cccnc2)cc1)N(C)C(=O)CN1C(=O)COc2cc(Cl)c(Cl)cc21` (stereo not drawn) has a remaining compound of 12.4%.

Block 3
Compound: CCCCN(CCCC)C(=O)CN1C[C@H](c2cc(OC)c3c(c2)OCO3)[C@@H](C(=O)O)[C@@H]1CC(C)(C)CCC
Effect on: cell-free assay
Technique: competition with immobilised ligand
Tested at: 1 µM
For SLK (Homo sapiens, UniProt Q9H2G2): remaining binding read 100%.
Tyrosine-protein kinase JAK1, JH1 (JAK1, Homo sapiens, UniProt P23458) — remaining binding: 98%.
It gave 95.4% for remaining binding (EGFR (Homo sapiens, UniProt P00533, G719C)).
It gave 88.7% for remaining binding (MAP3K4 (Homo sapiens, UniProt Q9Y6R4)).
The remaining binding was 54.4% (MAP4K2 (Homo sapiens, UniProt Q12851)).
It gave 100% for remaining binding (NUAK1 (Homo sapiens, UniProt O60285)).
The remaining binding was 71.4% (DYRK2 (Homo sapiens, UniProt Q92630)).
It gave 55.6% for remaining binding (TAOK1 (Homo sapiens, UniProt Q7L7X3)).
STK32B (Homo sapiens, UniProt Q9NY57) — remaining binding: 81.7%.
The remaining binding was 100% (FLT3 (Homo sapiens, UniProt P36888)).
For IRAK1 (Homo sapiens, UniProt P51617): remaining binding read 64.3%.
For CDK17 (Homo sapiens, UniProt Q00537): remaining binding read 99.3%.
It gave 90.6% for remaining binding (PLK3 (Homo sapiens, UniProt Q9H4B4)).
The remaining binding was 100% (PIKFYVE (Homo sapiens, UniProt Q9Y2I7)).
For MARK2 (Homo sapiens, UniProt Q7KZI7): remaining binding read 100%.
For KIT (Homo sapiens, UniProt P10721, V559D): remaining binding read 96.1%.
MAPK11 (Homo sapiens, UniProt Q15759) — remaining binding: 94.2%.
BMPR2 (Homo sapiens, UniProt Q13873) — remaining binding: 80%.
For PIK3CA (Homo sapiens, UniProt P42336, M1043I): remaining binding read 83.7%.
The remaining binding was 100% (PIK3C2G (Homo sapiens, UniProt O75747)).
It gave 100% for remaining binding (PIM2 (Homo sapiens, UniProt Q9P1W9)).
The remaining binding was 69.9% (SGK2 (Homo sapiens, UniProt Q9HBY8)).

Block 4
Organism: Sarcocystis neurona
Effect on: parasite growth
Tested at: 10 µM
The inhibition of `COc1cccc2c1C(=O)c1c(O)c3c(c(O)c1C2=O)C[C@@](O)(C(=O)CO)C[C@@H]3O[C@H]1C[C@H](N)[C@H](O)[C@H](C)O1` is reported as 54.4%.
With `Oc1ccc(C2CNCCc3c2cc(O)c(O)c3Cl)cc1` (stereo not drawn) the inhibition was -23.5%.
For `CC(=O)N1CCN(c2ccc(OCC3COC(Cn4ccnc4)(c4ccc(Cl)cc4Cl)O3)cc2)CC1` (stereo not drawn), the inhibition was 7.9%.
`C/C(=C\C(=O)OCCCCCCCCC(=O)O)C[C@@H]1OC[C@H](C[C@@H]2O[C@H]2[C@@H](C)[C@H](C)O)[C@@H](O)[C@H]1O` has an inhibition of 7.4%.
With `O=C(O[C@@H]1Cc2c(O)cc(O)cc2O[C@@H]1c1cc(O)c(O)c(O)c1)c1cc(O)c(O)c(O)c1` the inhibition was -24.7%.
`CCN(CC)C(=S)SSC(=S)N(CC)CC` has an inhibition of 96.3%.
For `CC(C)NCC(O)COc1cccc2[nH]ccc12` (stereo not drawn), the inhibition was -31.5%.
The inhibition of `COc1cc(CNC(=O)CCCC/C=C\C(C)C)ccc1O` is reported as -40%.
For `O=C1CCc2ccc(OCCCCN3CCN(c4cccc(Cl)c4Cl)CC3)cc2N1`, the inhibition was 10.6%.
For `Cc1onc(-c2ccccc2)c1C(=O)N[C@@H]1C(=O)N2[C@@H]1SC(C)(C)[C@@H]2C(=O)O`, the inhibition was -22.9%.
The inhibition of `CCCCC(=O)N(Cc1ccc(-c2ccccc2-c2nnn[nH]2)cc1)[C@H](C(=O)O)C(C)C` is reported as -21%.
